Experimental data of several laboratories.
Lines come from different studies, so protocols differ. Values joined by “and” are separate records of one study, mostly repeats; a detail may differ. Numbers after ± are the reported error.
BCHE: Cholinesterase (BCHE, Homo sapiens, UniProt P06276)
Sequence of UniProt P06276 (whole entry, looked up): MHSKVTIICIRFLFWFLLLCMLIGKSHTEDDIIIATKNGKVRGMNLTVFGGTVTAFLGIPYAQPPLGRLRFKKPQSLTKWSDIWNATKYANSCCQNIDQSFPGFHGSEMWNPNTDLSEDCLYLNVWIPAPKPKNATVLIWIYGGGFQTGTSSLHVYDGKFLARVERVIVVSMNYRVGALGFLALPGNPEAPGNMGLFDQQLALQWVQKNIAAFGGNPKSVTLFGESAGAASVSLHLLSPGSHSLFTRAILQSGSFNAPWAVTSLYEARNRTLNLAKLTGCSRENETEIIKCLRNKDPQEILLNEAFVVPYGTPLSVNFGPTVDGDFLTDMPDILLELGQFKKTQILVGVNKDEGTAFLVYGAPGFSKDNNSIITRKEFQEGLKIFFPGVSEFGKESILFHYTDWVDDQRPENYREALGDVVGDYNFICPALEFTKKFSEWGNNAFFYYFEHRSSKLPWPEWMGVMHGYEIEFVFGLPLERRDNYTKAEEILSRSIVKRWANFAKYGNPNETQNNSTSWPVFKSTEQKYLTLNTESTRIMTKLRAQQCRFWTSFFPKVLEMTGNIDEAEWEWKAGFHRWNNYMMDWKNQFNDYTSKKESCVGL
gag-pol integrase: Gag-Pol polyprotein, integrase (gag-pol, Human immunodeficiency virus 1, UniProt P12497)
Sequence of UniProt O95347 (whole entry, looked up): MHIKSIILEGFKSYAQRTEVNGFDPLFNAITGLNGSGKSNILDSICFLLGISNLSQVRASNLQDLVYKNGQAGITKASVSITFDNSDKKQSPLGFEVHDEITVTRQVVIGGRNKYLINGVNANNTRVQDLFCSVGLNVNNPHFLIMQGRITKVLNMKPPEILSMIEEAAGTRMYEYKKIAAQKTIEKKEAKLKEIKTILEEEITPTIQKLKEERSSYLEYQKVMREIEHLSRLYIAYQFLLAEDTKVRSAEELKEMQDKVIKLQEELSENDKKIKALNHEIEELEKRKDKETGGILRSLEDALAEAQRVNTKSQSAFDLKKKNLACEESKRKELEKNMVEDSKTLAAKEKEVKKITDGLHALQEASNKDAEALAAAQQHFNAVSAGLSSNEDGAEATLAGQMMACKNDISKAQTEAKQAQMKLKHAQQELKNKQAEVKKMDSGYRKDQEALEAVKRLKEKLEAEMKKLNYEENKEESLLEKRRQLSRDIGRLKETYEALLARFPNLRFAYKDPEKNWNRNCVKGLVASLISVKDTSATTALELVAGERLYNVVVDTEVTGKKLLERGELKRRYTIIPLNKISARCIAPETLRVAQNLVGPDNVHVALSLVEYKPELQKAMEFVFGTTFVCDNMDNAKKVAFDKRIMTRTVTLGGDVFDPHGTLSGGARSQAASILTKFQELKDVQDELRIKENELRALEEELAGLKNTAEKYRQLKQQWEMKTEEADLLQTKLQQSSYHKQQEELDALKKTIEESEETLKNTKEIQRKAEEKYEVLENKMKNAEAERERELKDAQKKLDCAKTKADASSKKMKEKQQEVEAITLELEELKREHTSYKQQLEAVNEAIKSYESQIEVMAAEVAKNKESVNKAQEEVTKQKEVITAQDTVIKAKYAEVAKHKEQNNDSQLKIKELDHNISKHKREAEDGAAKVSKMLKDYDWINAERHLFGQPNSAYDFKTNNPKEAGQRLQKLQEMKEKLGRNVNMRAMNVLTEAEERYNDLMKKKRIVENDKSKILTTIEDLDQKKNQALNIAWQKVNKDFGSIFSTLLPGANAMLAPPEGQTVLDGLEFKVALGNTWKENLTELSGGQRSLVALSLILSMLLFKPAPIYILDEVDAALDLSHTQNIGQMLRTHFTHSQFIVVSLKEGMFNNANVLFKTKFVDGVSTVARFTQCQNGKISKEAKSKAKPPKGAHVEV

SMILES | tested on | test | test system | setting | scale | quantity | result
CCC1=C[C@@H]2CN3CCc4c([nH]c5ccccc45)[C@@](C(=O)OC)(C2)[C@@H]13 | BCHE | inhibitor | – | with Triton | – | IC50 | 3220 ± 1440 nM
COc1ccc(-n2nc(C(C)=O)s/c2=N\N=C(/C)c2ccc(NC(C)=O)cc2)cc1 | HepG2 | – | – | 0.156 µM | – | viability | 37.6%
CC(COc1ccccc1)N(CCCl)Cc1ccccc1 (stereo not shown) | Plasmodium falciparum | – | HB3 | – | – | IC50 | 12600 nM
Cc1nnc(NN)c2c1[nH]c1ccccc12 | gag-pol integrase | 3'-processing activity, inhibitor | – | wild-type integrase | – | IC50 | > 100000 nM
Nc1ncc(-c2nc(N3CCOCC3)nc(N3CCOCC3)n2)c(C(F)F)n1 | SJCRH30 | – | – | 72 h | – | GI50 | 126 nM
C[C@@H](O)[C@@H]1NC(=O)[C@H](Cc2ccccc2)NC(=O)[C@@H](Cc2ccccc2)NC(=O)[C@H](Cc2ccccc2)NC(=O)[C@@H](CCCN)NC(=O)[C@H](CCCCN)NC(=O)[C@@H](CCCCN)NC1=O | Acanthamoeba castellanii | – | – | trophozoites | – | IC90 | > 16 µg/mL
CN1CCC(=C2c3ccccc3CC(=O)c3sccc32)CC1 | Plasmodium falciparum | – | HB3 | – | – | IC50 | 10000 nM
CC(C)[C@@H]1NC(=O)[C@@H](Cc2ccccc2)NC(=O)[C@H](Cc2ccccc2)NC(=O)[C@@H]([C@H](C)O)NC(=O)[C@@H](CCCNC(=N)N)NC1=O | Naegleria fowleri | – | – | trophozoites | – | IC90 | > 16 µg/mL
COc1cc2c(cc1C(F)(F)F)N(C(=O)Nc1cc(F)cc(-c3cccnc3)c1)CC2 | Plasmodium falciparum | – | HB3 | – | – | IC50 | 1000 nM
C[C@@H](O)[C@@H](CO)NC(=O)[C@@H](CCCNC(=N)N)NC(=O)[C@@H]1CCCN1C(=O)[C@@H]1CSSC[C@H](NC(=O)[C@H](Cc2ccccc2)NC(=O)CN2CCN(CC(=O)O)CCN(CC(=O)O)CCN(CC(=O)O)CC2)C(=O)N[C@@H](Cc2ccc(O)cc2)C(=O)N[C@@H](Cc2ccccc2)C(=O)N[C@@H](CCC(N)=O)C(=O)N[C@@H](CC(N)=O)C(=O)N1 [gallium-68 labelled] | – | – | Wistar rat, thyroid | intravenous, 8 MBq, 60 min, group mean | – | tissue uptake | 0.13 %ID/g
CC[C@H](C)[C@@H]1NC(=O)[C@@H]2CCCN2C(=O)[C@H](CC(C)C)NC(=O)[C@H](CC(C)C)NC(=O)CNC(=O)[C@@H](NC(=O)[C@@H](NC(=O)[C@H](CC(=O)O)NC(=O)CNC(=O)[C@@H](NC(=O)[C@H](C)NC(=O)CNC(=O)[C@H](CCCCN)NC(=O)[C@H](CC(C)C)NC(=O)[C@H](CC(C)C)NC(=O)[C@H](CCCCN)NC(=O)CNC(=O)[C@@H](NC(=O)[C@@H](N)CC(C)C)C(C)C)C(C)C)C(C)C)CSSC[C@@H](C(=O)O)NC1=O | – | RNA-seq, refers to: Fam19a3 | mouse, traumatic brain injury model, frontal cortex and hippocampus | dose not given | relative to: TBI alone | log2 fold change | -2.57
COC(=O)C1=CNC=C(C(=O)OC)C1c1ccc(Cl)c([N+](=O)[O-])c1 | Plasmodium falciparum | parasite growth, SYBR Green | 3D7 DHODH E182D | 72 h | – | EC50 | 714 ± 130 nM
C[C@H](C(=O)N[C@H]1COc2ccccc2[C@@H]1S(C)(=O)=O)c1ccc(F)cc1 | GABAB receptor, rat | binding | – | 10 µM, Eurofins selectivity panel | – | inhibition | -4%
COc1c(CCC[P+](c2ccccc2)(c2ccccc2)c2ccccc2)cc2c(c1OC)OCO2.[I-] | SR | SRB | – | – | – | TGI | -4.83 log M
C#CCN(C)[C@H](C)Cc1ccccc1 | – | footprint test | MPTP-induced Parkinson's disease mouse model | 10 mg/kg | – | corridor crossing time | 7.52 s and 5.93 s and 4.27 s and 5.85 s and 4.8 s and 5.33 s and 5.73 s
COc1ccc2c(c1)[nH]c1c(C)nccc12 | DU-145 | bisulfite pyrosequencing, refers to: RASSF1A promoter CpG site 19 | – | concentration not given | relative to: vehicle | methylation reduction | 2.9%
CC(C)[C@@H]1NC(=O)[C@@H](CCCN)NC(=O)[C@H]([C@@H](C)O)NC(=O)[C@H](Cc2ccccc2)NC(=O)[C@@H](Cc2ccccc2)NC(=O)[C@H](Cc2ccccc2)NC(=O)[C@@H](CCCN)NC1=O | Naegleria fowleri | – | – | trophozoites | – | IC90 | > 16 µg/mL
COc1ccc(O)c(/C=N/NC(=O)c2sc3ccccc3c2O)c1 | gag-pol integrase | strand transfer activity, inhibitor | – | wild-type integrase | – | IC50 | > 100000 nM
COc1cc2nc(N3CCN(C(=O)C4COc5ccccc5O4)CC3)nc(N)c2cc1OC (stereo not shown) | Plasmodium falciparum | – | W2 | – | – | IC50 | 1260 nM
Nc1ncnc2c1ncn2[C@@H]1O[C@@H]2COP(=O)(O)O[C@H]3[C@@H](O)[C@H](n4cnc5c(=O)[nH]cnc54)O[C@@H]3COP(=O)(O)O[C@H]2[C@H]1O | HFF-1 | RNA sequencing, refers to: Immune System | – | upregulated pathway | relative to: Zika virus alone | pathway fold enrichment | 2.89

SMILES | tested on | test | test system | setting | scale | quantity | result
COc1ccccc1N1CCN(Cc2c(NC(C)=O)sc(C)c2C)CC1 | Plasmodium falciparum | parasite growth, SYBR Green | 3D7 wild type | 72 h | – | EC50 | 224 ± 86 nM
NC(=O)c1cc[n+](CC2=C(C(=O)O)N3C(=O)[C@@H](NC(=O)[C@@H](c4ccccc4)S(=O)(=O)[O-])[C@H]3SC2)cc1 | PBP1b Streptococcus pneumoniae | Bocillin-FL competition | live Streptococcus pneumoniae cells | 30 min, with: Bocillin-FL 600 nM | – | kinact/KI | 17000 ± 2400 M⁻¹ s⁻¹
CCNC(=O)N1CCN(CCCC(c2ccc(F)cc2)c2ccc(F)cc2)CC1 | Plasmodium falciparum | – | W2 | – | – | IC50 | 316 nM
C[C@H]1CN(c2n[nH]c3nc(N[C@H]4CC[C@H](NS(=O)(=O)CCC(F)(F)F)CC4)ncc23)CCO1 | Structural maintenance of chromosomes protein 2 (Homo sapiens, UniProt O95347) | biochemical | – | – | – | IC50 | ≥ 20000 nM
C[C@H]1O[C@@H](O[C@H]2CC[C@@]3(C)[C@@H](CC[C@]4(C)[C@@H]3C=C[C@]35OC[C@@]6(CCC(C)(C)C[C@H]63)[C@@H](O)C[C@]54C)[C@]2(C)CO)[C@H](O)[C@@H](O[C@@H]2O[C@H](CO)[C@@H](O)[C@H](O)[C@H]2O)[C@H]1O | – | – | Mus musculus, chronic-plus-binge ethanol-fed, AAV8-TBG-Null vector, plasma | oral, high dose, 5 h | – | γ-GT activity | 26.8 U/L and 25.8 U/L and 32.6 U/L and 26.4 U/L
CC(=O)c1cc(O)c2ccccc2c1O | Zika virus | viral replication, plaque reduction | Vero, Venus reporter | – | – | EC50 | 1400 nM
C[C@]1(CO)Cc2ncn(-c3ccc(C#N)c(Cl)c3)c2C(=O)O1 | – | – | human | 20 mg single dose | – | urinary sodium excretion Ae(0-24h) | 289 mmol
COc1c(C)c2c(c(O)c1C/C=C(\C)CCC(=O)O)C(=O)OC2 | A204 | cell proliferation | muscle cancer | – | – | IC50 | 1740 nM
O=C(NC1C2CC3CC(C2)CC1C3)c1cc(-c2ccc(F)nc2)c[nH]1 (stereo not shown) | Vero | – | – | 48 h | – | IC50 | 35.2 µg/mL
CC(C)[C@H]1NC(=O)[C@H](Cc2ccccc2)NC(=O)CNC(=O)[C@@H](Cc2c[nH]c3ccccc23)NC(=O)[C@H](CCCCN)NC(=O)[C@@H](CCCN)NC1=O | Naegleria fowleri | – | – | trophozoites | – | IC90 | > 16 µg/mL
COc1nc(NCC(C)C)nc(Oc2ccc(=O)n(Cc3ccccc3)n2)n1 | Plasmodium falciparum | parasite growth, SYBR Green | – | 72 h | relative to: 3D7-E182D over 3D7 | EC50 ratio | 14
CCCCN1[C@@H]2CC[C@H]1C[C@@H](OC(c1ccc(F)cc1)c1ccc(F)cc1)C2 | Plasmodium falciparum | – | 3D7 | – | – | IC50 | 794 nM
Cc1cc(Nc2ccc(C)c(Cl)c2)n2nc(C(F)(F)F)nc2n1 | Plasmodium falciparum | parasite growth, SYBR Green | 3D7 DHODH E182D | 72 h | – | EC50 | 582 ± 110 nM
COc1cc(CCC[P+](c2ccccc2)(c2ccccc2)c2ccccc2)c(OC)c2c1OCO2.[I-] | IGROV-1 | SRB | – | – | – | GI50 | -6 log M
O=C(Nc1cccc(CN2CCN(C(=O)c3cccc(Cl)c3)CC2)c1)c1ccco1 | Plasmodium falciparum | parasite growth, SYBR Green | 3D7 wild type | 72 h | – | EC50 | 499 ± 57 nM
C=CCc1ccccc1OCC(O)CNC1(C)CCC(C(C)(C)NC(=O)CBr)CC1 (stereo not shown) | Plasmodium falciparum | – | HB3 | – | – | IC50 | 3980 nM
COc1ccc(-n2ccnc2SCC(=O)Nc2cc(Cl)ccc2OC)c(OC)c1 | Plasmodium falciparum | parasite growth, SYBR Green | – | 72 h | relative to: 3D7-E182D over 3D7 | EC50 ratio | 5.2
CC1(N2CCC(n3c([C@@H]4CCCNC4)nc4ccccc43)CC2)CCCCCCC1 | BCHE | inhibitor | – | – | – | IC50 | 4500 ± 300 nM
CC(C)(C)c1cc(C=C(C#N)C#N)cc(C(C)(C)C)c1O | Plasmodium falciparum | – | HB3 | – | – | IC50 | 1000 nM
C#CCN(C)[C@H](C)Cc1ccccc1 | – | passive avoidance test | APP/PS1 mice | oral, 10 mg/kg, 3 days | – | step-through latency | 422 ± 67.8 s

For quick reference, copied from above:
SMILES | tested on | test | test system | setting | scale | quantity | result
CC1(N2CCC(n3c([C@@H]4CCCNC4)nc4ccccc43)CC2)CCCCCCC1 | BCHE | inhibitor | – | – | – | IC50 | 4500 ± 300 nM
CC(C)(C)c1cc(C=C(C#N)C#N)cc(C(C)(C)C)c1O | Plasmodium falciparum | – | HB3 | – | – | IC50 | 1000 nM
